# Measured values of several laboratories.
# Each numbered part is a random draw from the data of one study; scales do not carry over between parts. Positions count from the first letter of the parent shown.

# Block 1
# Target: ABI1, truncated, D143A, DHFR fusion (Arabidopsis thaliana)
# Method: DHFR PCA, deep sequencing
# Medium: yeast
# Setting: methotrexate growth selection, single substitutions
# Together with: (+)-ABA 0.0091 µM
# Reference: wild-type fitted maximum
# Reading: higher = stronger binding
# Starting sequence: PYL1, truncated, DHFR fusion (Arabidopsis thaliana); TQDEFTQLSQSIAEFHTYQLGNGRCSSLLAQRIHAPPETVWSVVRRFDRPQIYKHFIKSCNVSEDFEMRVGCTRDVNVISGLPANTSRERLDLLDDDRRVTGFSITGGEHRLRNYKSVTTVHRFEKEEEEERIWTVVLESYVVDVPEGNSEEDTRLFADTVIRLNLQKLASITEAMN; partner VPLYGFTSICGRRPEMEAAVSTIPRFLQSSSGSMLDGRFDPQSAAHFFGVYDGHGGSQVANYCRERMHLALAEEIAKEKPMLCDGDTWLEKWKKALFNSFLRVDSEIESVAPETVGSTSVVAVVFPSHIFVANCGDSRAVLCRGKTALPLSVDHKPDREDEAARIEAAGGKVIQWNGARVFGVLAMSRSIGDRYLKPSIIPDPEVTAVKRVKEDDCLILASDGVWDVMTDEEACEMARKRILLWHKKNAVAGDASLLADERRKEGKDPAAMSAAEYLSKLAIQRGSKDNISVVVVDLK
Substitution,relative binding score [%]
V142N,1.79
T17N,0.883
E139D,-2.97
R69N,4.99
V62E,0.384
R113Y,-9.6
T17S,14.4

# Block 2
# Target: RING finger protein unkempt homolog, zinc fingers 1-6, GST-SBP tag (UNK, Homo sapiens, UniProt Q9C0B0, residues 30-357)
# Method: RNA Bind-n-Seq
# Form: RNA
# Medium: in vitro
# Concentration: not given
# Setting: RNA with constant flanks, human-mouse chimeric sites, ends assumed
# Reference: input RNA pool
# Reading: higher = stronger binding
# Target sequence (chain): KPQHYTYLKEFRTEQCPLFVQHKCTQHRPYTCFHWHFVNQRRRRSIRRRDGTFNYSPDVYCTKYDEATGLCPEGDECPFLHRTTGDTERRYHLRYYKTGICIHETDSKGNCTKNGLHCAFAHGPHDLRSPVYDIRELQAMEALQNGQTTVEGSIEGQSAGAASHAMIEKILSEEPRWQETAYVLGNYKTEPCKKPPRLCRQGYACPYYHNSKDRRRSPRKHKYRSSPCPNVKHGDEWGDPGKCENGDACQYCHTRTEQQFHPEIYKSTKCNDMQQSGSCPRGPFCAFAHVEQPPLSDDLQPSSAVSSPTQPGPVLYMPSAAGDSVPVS
Strand,bound/input enrichment
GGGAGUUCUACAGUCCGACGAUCAUCAAAUACUUUGGGGACAUCAUUAGUGUGGGACAGAGACUGUUGCAAGGAGCUCGGAUUUUAGGAAUUCCAGUUAUCAUAACGGAACAAUACCCUAAAGGACUUGGCAGCACCGUUCAACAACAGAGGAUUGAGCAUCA,0.187 ratio
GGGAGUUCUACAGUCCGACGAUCGCGGCAGAAUCAUGGUGGACAUAAUGCAGCUCCCCAAAGCGCGCGUCAACGCCGGCAUGUUACCACAGUAUAUCGACCGGCCCGUGUGCUUCGUGGGGAAGCUGGAAAAGAUUCAUCCCACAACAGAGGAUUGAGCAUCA,0.0795 ratio
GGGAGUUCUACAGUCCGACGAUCAUGCAGUAUGAGACCAACAGCAUGGACUUCAAAGUUGGGGCAGAUGGGACAGUCUUCGCCACCCGGGAGCUGCAGGUCCCCUCCGAGCAGGUGGCCUUCACGGUGACUGCAUGGGACAGCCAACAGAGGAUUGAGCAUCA,0.184 ratio
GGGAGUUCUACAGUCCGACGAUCCUUAAUGUUAAUAUUUUUGAAUAAAUGAAGCUAAAAUGUCUGCUUUUGGUACAACACGCAUUAGCGAAAGGUUAAGUAAGUUUUGUUACUGAAGUACUAUUUAACAUCUCAGAAAAAAACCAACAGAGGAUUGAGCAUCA,0.392 ratio
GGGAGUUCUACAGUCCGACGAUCCCCUCCCGGGCCACCCAACCCCUCCCGGCUCCCCGCCGAGAUCCAGGUUUCUUCUUAUUUCAUAGCAAAUAAGAAAAAUGUUCUACGCACAUUUUGUCCUCAGUAAACGAGGGCCUCUGGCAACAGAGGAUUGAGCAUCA,0.483 ratio
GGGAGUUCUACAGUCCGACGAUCGACUUUGGGACUGGUCCUCGCAACGCAGCCUUCUAUAGCCCUCAUGGACAUAUAUUAGUAUUAGCUGGAUUUGGAAAUCUUCGAGGACAAAUGGAAGUGUGGGAUGUUAAAAACUACAAGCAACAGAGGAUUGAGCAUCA,0.674 ratio
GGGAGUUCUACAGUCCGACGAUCAAUAGAGGAUUAUAUUCCCAAAGUGCUGGGAGUAAAGGUGUGGCCACCACACCUAACUUGAUGGAUAUAUAUUUUUUUUAAUAUGAAUCUUCCUGUUCGUCCAGGGAAGAAAGAUUUGUUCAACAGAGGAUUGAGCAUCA,1.73 ratio

# Block 3
# Target: CCND2, cyclin fold, Cln2 fusion (human)
# Method: yeast growth competition, sequencing
# Medium: yeast
# Setting: strong parent motif
# Reference: not given
# Reading: higher = stronger binding
# Starting sequence: INSM1 docking peptide (human); PKAIRKLHFEDEV; partner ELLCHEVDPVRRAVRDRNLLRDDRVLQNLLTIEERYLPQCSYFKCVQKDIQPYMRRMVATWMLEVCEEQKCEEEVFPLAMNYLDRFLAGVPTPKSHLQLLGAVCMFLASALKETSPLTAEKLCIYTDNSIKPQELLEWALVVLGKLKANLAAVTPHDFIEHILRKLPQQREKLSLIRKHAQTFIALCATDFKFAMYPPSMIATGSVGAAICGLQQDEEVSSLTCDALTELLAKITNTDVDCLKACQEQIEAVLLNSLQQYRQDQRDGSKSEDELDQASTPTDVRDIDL
Substitution,normalised enrichment score
PKAIRKIHFEDEV [L7I],1.76
PKAICKLHFEDEV [R5C],0.755
PKAIRKLHTEDEV [F9T],0.127
PKAIRKLHFEGEV [D11G],1.49
PKAIRPLHFEDEV [K6P],0.0929
PKAITKLHFEDEV [R5T],0.405
PKLIRKLHFEDEV [A3L],0.116
PKMIRKLHFEDEV [A3M],0.453
PKAIRKLHFEDIV [E12I],1.54

# Mixed results
Molecule,target,test,system,setting,how to read,quantity,result
"PhoQ, residues 284 288 289 292 302 303 TASMAF","PhoP, residues 12 14 15 18 19 NIMAP (Escherichia coli, UniProt P23836)","Sort-seq, item: YFP reporter",E. coli,"PhoQ-PhoP variant library, together with: 10 µM Mg2+","reference: high Mg2+ state, higher = stronger signaling",fold induction,0.505
